Measurements collected from several papers.
Each numbered part is a random draw from the data of one study; scales do not carry over between parts.

Block 1 — technique: aptamer microarray, sandwich; form: DNA with 2'F-ANA; medium: in vitro; tested at: 200 nM; with: Cy3 exosite-II aptamer, 400 nM; reading: higher = stronger binding; strand: GGTTGGTGTGGTTGG
Target: Prothrombin, mature alpha-thrombin (F2, Homo sapiens, UniProt P00734)
Notes: whole 15-mer aptamer, many near background
| Modification | mean fluorescence intensity |
| --- | --- |
| 2'F-ANA at 4 5 7 8 10 12 13 14 15 | 43.6 a.u. |
| 2'F-ANA at 1 3 4 6 8 11 14 | 65.2 a.u. |
| 2'F-ANA at 3 5 6 7 8 9 12 13 14 | 58.1 a.u. |
| 2'F-ANA at 2 3 4 7 8 9 10 11 13 15 | 221 a.u. |
| 2'F-ANA at 2 3 4 5 7 8 9 12 14 | 55.6 a.u. |
| 2'F-ANA at 1 3 4 6 12 14 15 | 98.3 a.u. |
| 2'F-ANA at 1 2 3 5 6 7 13 14 | 60 a.u. |
| 2'F-ANA at 2 3 4 6 9 10 13 | 195 a.u. |
| 2'F-ANA at 1 4 6 7 8 14 | 70.8 a.u. |
| 2'F-ANA at 4 5 6 8 11 12 13 15 | 74.9 a.u. |
| 2'F-ANA at 3 6 7 11 14 | 526 a.u. |

Block 2 — technique: RNA Bind-n-Seq; form: RNA; medium: in vitro; tested at: 100 nM; baseline: input RNA pool; reading: higher = stronger binding
Target: RING finger protein unkempt homolog, zinc fingers 1-6, SBP tag (UNK, Homo sapiens, UniProt Q9C0B0, residues 30-357)
UniProt Q9C0B0, sequence (30-357, looked up): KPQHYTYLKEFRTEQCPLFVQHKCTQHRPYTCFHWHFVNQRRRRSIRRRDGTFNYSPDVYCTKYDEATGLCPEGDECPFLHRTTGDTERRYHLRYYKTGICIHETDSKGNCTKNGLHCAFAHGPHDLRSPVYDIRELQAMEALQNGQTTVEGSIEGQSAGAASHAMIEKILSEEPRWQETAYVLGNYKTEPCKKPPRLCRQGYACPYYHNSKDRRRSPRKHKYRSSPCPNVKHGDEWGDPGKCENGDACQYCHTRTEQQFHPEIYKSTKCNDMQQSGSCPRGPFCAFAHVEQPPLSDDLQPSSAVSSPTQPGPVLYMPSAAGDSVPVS
Notes: RNA with constant flanks, vertebrate orthologous sites, ends assumed
| Strand | bound/input enrichment [ratio] |
| --- | --- |
| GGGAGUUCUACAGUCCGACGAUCAUGUAAGUAGAAAAGAAUUUUCAUCCAUCUUCCCAUUGUGAAAUUCUCUAGCACUGUAUUUAGAUUCUGGAUUUUUAUAAUUCAUGUUUAAUGUAUUAGACAUUUUUAGCCCAUAAUUAACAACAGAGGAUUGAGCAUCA | 0.99 |
| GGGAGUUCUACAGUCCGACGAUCGCAUGCACAUGCCGCUGUCACCAAAAGCAACUACCGUCUUCAAAAUCUCCAAUAGCCUUCUUAGGAUUCUCUCCCUCUUUCCCUUCUGUUCUCCCGAUGCUUUAAAUGAUUAGAAGUCCUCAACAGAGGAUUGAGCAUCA | 2.44 |
| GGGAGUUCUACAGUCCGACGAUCUGUAAAAUAUUUGAUGCAGUGUAUAAAUUAUCCAAGGCAGUGACUUCAGCUUUAUAUAUAUCGCUAGUUUUAAAAUCAUCUACUUUUAUUUAAACUUCUAGAUUGGAUUAUUUGCUAUUGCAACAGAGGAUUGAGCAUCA | 0.51 |
| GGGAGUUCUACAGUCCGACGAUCAAUCAGUAGAAUUACAUAAUACUAAAGUUGCAGUUGAAAGGAUAUCCAAGUAUGUGUUGGUAGUUACUAAAAGAAUUAUAGCUGUUAUUGCCUUGUAUUUAUAGCCCUGUUUCAGGUUUCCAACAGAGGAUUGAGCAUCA | 0.986 |
| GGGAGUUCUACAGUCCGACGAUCGUGAGGGUCUACUGACCACUCACUGUUAUGUCUGGUAUCUGUAAACACUCUUUUCGUUCUUAGUCUUUUUCUUGUAUAAUUGAUGUUCUUUAAAAUUGUUAAUGUAUAACAGGGCUUAUGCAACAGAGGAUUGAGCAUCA | 1.83 |

Block 3 — technique: universal PBM; form: double-stranded DNA, one strand shown; medium: in vitro; tested at: not given; reading: higher = stronger binding
Target: Sal-like protein 4, full length isoform B (SALL4, Homo sapiens, UniProt Q9UJQ4-2, residues 1-616)
Notes: 8-mer, flanks averaged, mean of replicates
| Strand | E-score |
| --- | --- |
| CCATTAGG | -0.044 |
| GCTAATAC | 0.11 |
| GATGATTA | 0.143 |
| GAAAACAC | -0.0606 |
| AAGTCCAC | -0.221 |
| GCCGCGCA | -0.32 |
| CATTTTTC | 0.295 |
| CAAGGTGG | -0.133 |
| CCCGAAAA | 0.175 |
| AAAAAACC | 0.0433 |
| GGGCCTAA | -0.295 |
| AAAGTAGA | 0.202 |
| GGTCCCGA | -0.389 |
| AGATGCCC | -0.153 |
| ACAGTAAT | 0.215 |
| AATACTGC | 0.111 |
| ATATCCAA | 0.23 |
| CACAGTGA | -0.0597 |

Block 4 — technique: RNA Bind-n-Seq; form: RNA; medium: in vitro; tested at: 365 nM; baseline: no-protein control; reading: higher = stronger binding
Target: RNA binding protein fox-1 homolog 2, RRM domain, GST-SBP tag (RBFOX2, Homo sapiens, UniProt O43251-10, residues 100-194)
Notes: natural RNA segment, single round, ends assumed
Target sequence (chain): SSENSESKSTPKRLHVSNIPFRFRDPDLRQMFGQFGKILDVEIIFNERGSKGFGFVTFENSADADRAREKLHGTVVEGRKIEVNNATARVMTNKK
| Strand | RBNS enrichment (R) |
| --- | --- |
| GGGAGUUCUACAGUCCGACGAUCUGUUUAAAAUUAAAUUUGGGCACAGGAAGCACACAGAGACAUUUAGGUUGUUUAAAAAGUCAGAAUUUCUGAGUACCAUUUCAGUCUGGAGGCUUUUAGCUGAGUCCAGGUGGAAUUCUCGGGUGCCAA | 0.518 |
| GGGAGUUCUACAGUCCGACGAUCCUGGCCCUGCAAAUGUUUACAGAAAUGAAAUUCUUCCUACUUAUAUAAGAAAUCUCACACUGAGAUAGAAUUGUGAUUUCAUAAUAACACUUGAAAAGUGCUGGAGUAACUGGAAUUCUCGGGUGCCAA | 0.341 |
| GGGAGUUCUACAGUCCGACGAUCGACAGUUCCAAUGAGAUAACACUAUCAGCUUGUCUGGUAGAGCACCCCCUGCCUCACAUGGGGAGCACUGUUCAGAGCACACACUGGGGAGUUCUGACUUUGGCCAUUAGUGGAAUUCUCGGGUGCCAA | 0.412 |
| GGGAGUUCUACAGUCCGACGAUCACUCCACUGCCACCGUGGUGCCUGGCUUCAGCUCCCCUCCCCCAAUCCCUGCUAAGCCUCUACUCUGCAGGGAGACGCGACUGGCGGCUCCAGCAGGAACUACCUUUCUGUGGAAUUCUCGGGUGCCAA | 0.334 |
| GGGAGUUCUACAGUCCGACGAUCCUUUUCUUUCAUUCAGAUGACCUUUUUCUGAAUCUGGGCACUGAAGGGAUGCAUAAAAUAAUGUUAAUGUUUUCAGUAAUGUCUUCAAGUAGAAGACUUUCUGUUGAACUUGGAAUUCUCGGGUGCCAA | 0.287 |
| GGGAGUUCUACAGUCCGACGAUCUCCCUCUCCAAAUAAUACACAGAAUCCUGCAACUUUUUGCACAGCUGGUAUCUGUCUGGUAGCAGUGAGACCCCUUGUCUUGGUGAUCCUUACUGGGUUUCCAAGCAGAGUGGAAUUCUCGGGUGCCAA | 0.231 |
| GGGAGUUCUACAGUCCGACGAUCUUUGAGCCUGGGAAAUAAGCCCCCUCAACUACCAUUCCUUCUUUAAACACUCUUCAGAGAAAUCUGCAUUCUAUUUCUCAUGUAUAAAACUAGGAAUCCUCCAACCAGGCUGGAAUUCUCGGGUGCCAA | 5.79 |
| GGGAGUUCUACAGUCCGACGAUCACAGGCUUUCAUUCUAUCUUAUUAACAUAGAGUCUUAUGGAACAAUUUGCCAUGAGUAUAGUUGAAAUCACCAUAGCAAACUCAGGGUAAGUGUGGGCUUUUGUUUCUUAUGGAAUUCUCGGGUGCCAA | 0.509 |

Block 5 — technique: EMSA with sequencing; form: double-stranded DNA, one strand shown; medium: in vitro; tested at: 10 and 20 nM; baseline: negative control set to 0; reading: higher = stronger binding
Target: Hepatocyte nuclear factor 3-alpha (Foxa1, Mus musculus, UniProt P35582, residues 1-468, full length assumed)
Notes: whole designed probe, mean of two concentrations, ends assumed
Residues (chain): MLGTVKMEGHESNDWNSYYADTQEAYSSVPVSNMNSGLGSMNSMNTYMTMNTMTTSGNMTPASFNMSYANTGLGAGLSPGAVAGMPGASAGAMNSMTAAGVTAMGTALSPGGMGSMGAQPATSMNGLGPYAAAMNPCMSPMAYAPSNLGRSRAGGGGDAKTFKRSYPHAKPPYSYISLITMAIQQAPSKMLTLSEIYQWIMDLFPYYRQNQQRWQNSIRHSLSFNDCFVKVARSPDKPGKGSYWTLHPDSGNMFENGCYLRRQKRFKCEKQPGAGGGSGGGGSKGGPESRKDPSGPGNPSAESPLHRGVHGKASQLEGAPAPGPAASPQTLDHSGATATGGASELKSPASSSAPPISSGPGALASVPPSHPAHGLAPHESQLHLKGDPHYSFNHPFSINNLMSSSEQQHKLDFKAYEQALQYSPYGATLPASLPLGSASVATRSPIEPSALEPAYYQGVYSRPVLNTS
| Strand | normalised bound fraction |
| --- | --- |
| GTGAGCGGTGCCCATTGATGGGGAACTTACCACCTCCACCTCTGCTACTTTCTGCTCTAGAAACTACTTTAATGAAAAGAGAAAAAGCTAGTTGACTAGCATGTTGATTTTATGCCCAATGCAATTTCAGACCAACTGACTCATCCTGAAAATATTTAGCAGGGAGAAAAAAAAAAAGAAGAAAATTTTTTTTAGTGAGTAGCCCACATTATGATACTTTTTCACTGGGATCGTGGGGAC | -0.00869 ratio |
| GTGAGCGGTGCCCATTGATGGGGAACGAAAGCTGCTTTTTCCAACAACCACCCGAATCAATTTTGCCCAGATTGGGGTGTCTGCCTTCGCCCAAGTGGAAACAATGCTGGTCTTTCCATATTTACATTGAATTTGGGTTCTTTCCCCTTTTTTGAAAGGCAAAATCAAGCGGTGGCTTACACTTTTCAGCAGCTTTAAAAATAAATAATGGTGATGGACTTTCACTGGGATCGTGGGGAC | 0.146 ratio |
| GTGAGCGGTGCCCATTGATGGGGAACATAGACTCAATGAATCATCCCATTTTAGTTTTTAAGCTAAGCTAAGAAATACCATTGTTGAACTGTACTCAATTCAACAAACATGGATATAAATGTAAACAAGAAAATGAGACTACTTTCAGTGAGAATGCACACTATAATTCATAAGGTAAGTCTAGCTCAAATACTGAAAAGTCAACCATTTGGGATGAAATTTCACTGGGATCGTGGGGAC | 0.383 ratio |
| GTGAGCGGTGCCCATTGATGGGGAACTAATGTATTATTTAGGAATCTACTTATGGGACCCATATCCATGAGAAACGTGAAGAGCGAGAAGCAAGATTCTGTAACACTGTCCACGATATTGTAATCTGAGGAGGCAGGGGTCTCATTCCTGTCTTTGCTCTTGGAAGGGCTCAGGAGCTGCTCTTGATTCTAGGTATGCCATTTCCTTTGTATTTAGGCGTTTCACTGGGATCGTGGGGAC | 0.0102 ratio |
| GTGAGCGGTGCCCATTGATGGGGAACACCTCATCTCAGGTATTTTCTGATGACGTATGTCTCAAGAAGAGTTCCTAGTAGCATCTGTGGTACCAGTTATGGAATTCTGAGTTTCTCTACTGTTGACTTTTTCAAAGATCAGGGATCCAGGTCTAGCATCCTCACAATTTGTCTAAGTGCTGAATGAATGGAGTACTTAGAAAAGGCCTCTATTTAAGATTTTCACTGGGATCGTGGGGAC | 0.164 ratio |

For quick reference, copied from above (block 3):
| Strand | E-score |
| --- | --- |
| AATACTGC | 0.111 |
| ATATCCAA | 0.23 |
| CACAGTGA | -0.0597 |
